{"data": "Published values pooled from the literature", "note": "Each numbered part is a random draw from the data of one study; scales do not carry over between parts.", "chain of UniProt Q05940 (whole entry, looked up)": "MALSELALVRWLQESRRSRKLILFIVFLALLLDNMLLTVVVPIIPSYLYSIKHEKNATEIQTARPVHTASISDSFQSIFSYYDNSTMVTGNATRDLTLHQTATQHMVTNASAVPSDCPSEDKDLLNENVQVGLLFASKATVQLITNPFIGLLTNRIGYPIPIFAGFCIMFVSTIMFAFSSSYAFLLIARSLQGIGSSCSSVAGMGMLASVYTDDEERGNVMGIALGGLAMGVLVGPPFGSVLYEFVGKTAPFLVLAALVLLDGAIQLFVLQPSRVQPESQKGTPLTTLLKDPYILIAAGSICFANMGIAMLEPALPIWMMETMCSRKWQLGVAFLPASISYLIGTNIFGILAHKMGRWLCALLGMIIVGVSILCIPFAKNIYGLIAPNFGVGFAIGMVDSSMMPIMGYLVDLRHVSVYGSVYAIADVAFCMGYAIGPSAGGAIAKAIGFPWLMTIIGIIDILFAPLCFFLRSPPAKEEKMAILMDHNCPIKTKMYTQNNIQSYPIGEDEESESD", "chain of UniProt P37023 (whole entry, looked up)": "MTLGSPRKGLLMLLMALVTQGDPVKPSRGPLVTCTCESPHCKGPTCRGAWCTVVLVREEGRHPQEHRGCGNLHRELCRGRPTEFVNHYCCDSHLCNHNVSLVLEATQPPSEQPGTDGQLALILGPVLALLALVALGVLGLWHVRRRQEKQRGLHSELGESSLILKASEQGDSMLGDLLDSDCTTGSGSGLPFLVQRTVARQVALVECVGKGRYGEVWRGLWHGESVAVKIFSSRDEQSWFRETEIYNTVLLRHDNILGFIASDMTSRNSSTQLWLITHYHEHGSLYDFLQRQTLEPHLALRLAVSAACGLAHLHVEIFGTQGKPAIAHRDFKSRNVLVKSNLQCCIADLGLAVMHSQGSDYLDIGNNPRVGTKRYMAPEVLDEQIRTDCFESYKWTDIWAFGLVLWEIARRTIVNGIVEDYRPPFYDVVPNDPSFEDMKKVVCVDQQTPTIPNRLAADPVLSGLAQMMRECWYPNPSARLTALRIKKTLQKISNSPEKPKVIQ", "chain of UniProt Q15418 (whole entry, looked up)": "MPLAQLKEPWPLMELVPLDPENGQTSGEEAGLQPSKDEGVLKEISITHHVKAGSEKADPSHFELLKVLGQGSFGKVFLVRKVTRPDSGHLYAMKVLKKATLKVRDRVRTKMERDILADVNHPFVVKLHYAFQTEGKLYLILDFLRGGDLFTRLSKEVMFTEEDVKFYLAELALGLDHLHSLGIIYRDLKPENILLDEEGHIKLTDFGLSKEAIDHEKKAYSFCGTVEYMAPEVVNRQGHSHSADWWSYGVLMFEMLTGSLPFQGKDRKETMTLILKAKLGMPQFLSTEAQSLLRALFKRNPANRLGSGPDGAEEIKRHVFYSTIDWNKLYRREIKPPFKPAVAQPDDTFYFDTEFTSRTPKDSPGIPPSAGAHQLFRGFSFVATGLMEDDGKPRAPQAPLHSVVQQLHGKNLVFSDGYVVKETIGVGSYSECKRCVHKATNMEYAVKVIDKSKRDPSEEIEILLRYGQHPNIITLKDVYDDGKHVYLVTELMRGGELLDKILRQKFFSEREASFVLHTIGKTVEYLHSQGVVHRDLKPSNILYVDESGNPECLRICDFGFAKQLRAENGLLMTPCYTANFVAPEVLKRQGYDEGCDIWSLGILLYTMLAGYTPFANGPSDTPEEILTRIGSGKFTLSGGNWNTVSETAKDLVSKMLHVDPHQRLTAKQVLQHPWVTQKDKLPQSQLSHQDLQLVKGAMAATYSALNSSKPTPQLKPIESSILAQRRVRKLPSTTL", "chain of UniProt P08922 (whole entry, looked up)": "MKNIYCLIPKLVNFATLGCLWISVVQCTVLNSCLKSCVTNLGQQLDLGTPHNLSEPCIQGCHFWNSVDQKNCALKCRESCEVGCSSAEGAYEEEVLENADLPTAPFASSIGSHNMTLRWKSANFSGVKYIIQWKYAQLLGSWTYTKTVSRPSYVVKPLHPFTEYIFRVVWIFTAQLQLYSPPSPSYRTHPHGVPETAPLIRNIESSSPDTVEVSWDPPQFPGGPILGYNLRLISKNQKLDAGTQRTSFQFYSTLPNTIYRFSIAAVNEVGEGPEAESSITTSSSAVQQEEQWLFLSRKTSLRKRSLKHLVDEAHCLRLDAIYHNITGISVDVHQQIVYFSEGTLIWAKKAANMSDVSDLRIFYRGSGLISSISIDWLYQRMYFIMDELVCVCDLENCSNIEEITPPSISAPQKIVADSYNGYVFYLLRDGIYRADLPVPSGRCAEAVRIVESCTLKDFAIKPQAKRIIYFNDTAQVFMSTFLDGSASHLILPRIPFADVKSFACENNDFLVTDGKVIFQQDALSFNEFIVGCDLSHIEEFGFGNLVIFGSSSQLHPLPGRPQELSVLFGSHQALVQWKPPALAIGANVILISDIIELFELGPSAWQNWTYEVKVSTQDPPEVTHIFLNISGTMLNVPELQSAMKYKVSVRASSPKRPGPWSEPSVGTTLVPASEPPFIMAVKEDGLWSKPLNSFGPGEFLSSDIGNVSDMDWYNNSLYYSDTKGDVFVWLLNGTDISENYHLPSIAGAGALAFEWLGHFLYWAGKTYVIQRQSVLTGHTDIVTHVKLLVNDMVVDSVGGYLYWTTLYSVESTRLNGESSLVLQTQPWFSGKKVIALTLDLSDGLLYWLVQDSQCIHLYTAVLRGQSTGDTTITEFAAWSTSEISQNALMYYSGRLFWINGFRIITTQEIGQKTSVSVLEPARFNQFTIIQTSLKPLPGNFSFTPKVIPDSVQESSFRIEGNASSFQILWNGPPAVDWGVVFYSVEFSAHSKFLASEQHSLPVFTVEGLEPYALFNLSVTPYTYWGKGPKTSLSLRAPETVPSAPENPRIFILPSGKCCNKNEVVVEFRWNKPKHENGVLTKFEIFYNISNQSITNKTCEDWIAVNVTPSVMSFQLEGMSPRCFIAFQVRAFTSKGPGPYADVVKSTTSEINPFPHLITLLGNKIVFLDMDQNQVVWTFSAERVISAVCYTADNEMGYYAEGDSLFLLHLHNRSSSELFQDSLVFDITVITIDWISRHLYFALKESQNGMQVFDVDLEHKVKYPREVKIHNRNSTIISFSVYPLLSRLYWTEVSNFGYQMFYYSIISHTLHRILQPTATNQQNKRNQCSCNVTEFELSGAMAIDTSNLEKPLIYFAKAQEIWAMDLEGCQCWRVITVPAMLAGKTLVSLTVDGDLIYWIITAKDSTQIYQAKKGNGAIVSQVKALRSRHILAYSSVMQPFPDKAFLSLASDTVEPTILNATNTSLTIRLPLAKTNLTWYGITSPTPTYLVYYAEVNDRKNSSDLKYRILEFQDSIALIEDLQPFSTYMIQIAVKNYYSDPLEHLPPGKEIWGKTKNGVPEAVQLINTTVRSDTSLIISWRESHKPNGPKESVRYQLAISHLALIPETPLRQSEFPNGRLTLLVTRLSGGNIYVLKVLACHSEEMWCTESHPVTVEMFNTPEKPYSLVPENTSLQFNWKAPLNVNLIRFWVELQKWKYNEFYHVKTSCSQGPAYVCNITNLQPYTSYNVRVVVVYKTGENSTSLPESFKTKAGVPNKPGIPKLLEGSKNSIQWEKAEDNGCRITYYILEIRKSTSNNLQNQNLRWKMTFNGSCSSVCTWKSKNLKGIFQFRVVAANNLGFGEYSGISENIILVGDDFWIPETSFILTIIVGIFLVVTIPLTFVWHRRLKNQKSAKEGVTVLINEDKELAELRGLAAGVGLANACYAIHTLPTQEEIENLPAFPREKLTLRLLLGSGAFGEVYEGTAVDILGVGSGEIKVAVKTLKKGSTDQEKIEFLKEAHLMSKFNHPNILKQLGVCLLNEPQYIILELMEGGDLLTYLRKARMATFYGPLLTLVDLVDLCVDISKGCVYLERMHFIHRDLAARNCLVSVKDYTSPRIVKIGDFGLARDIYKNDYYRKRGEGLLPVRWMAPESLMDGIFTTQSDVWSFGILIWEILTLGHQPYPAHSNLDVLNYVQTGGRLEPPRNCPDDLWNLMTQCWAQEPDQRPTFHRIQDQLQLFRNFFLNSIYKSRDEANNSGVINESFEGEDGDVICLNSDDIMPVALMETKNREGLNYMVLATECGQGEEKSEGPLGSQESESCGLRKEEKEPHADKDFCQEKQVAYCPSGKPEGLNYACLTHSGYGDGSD", "chain of UniProt P30291 (whole entry, looked up)": "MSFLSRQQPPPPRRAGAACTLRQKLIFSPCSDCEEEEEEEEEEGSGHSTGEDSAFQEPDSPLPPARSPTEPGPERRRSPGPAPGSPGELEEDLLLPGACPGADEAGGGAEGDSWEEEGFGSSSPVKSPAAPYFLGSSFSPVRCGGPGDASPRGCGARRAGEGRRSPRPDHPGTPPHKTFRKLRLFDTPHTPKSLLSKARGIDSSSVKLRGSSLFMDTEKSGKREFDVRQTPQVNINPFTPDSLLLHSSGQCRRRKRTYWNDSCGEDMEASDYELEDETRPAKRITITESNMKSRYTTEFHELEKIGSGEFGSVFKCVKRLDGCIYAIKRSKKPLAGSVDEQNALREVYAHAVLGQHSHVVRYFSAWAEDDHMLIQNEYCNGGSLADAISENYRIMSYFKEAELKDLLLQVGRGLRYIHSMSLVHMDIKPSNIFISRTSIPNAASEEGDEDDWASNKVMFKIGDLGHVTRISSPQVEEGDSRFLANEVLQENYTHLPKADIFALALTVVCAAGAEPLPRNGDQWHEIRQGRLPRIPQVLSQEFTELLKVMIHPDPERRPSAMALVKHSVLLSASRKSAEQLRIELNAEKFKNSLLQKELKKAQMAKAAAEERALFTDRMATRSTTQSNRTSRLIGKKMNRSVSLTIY"}
{"data": "Block 1", "target": "Cyclin-dependent kinase 2, with cyclin E (CDK2, Homo sapiens, UniProt P24941)", "read-out": "enzyme activity", "mode": "inhibitor", "tested at": "0.5 µM", "reference": "control"}
{"Structure (SMILES)": "COc1ccc(C(=O)Nc2sc3c(c2C(N)=O)CCCC3)cc1OC", "remaining activity": "94.6%"}
{"Structure (SMILES)": "O=C1NC(=O)C(c2cn(CCCO)c3ncccc23)=C1c1cnccn1", "remaining activity": "85.1%"}
{"Structure (SMILES)": "COc1cc2ncnc(Nc3ccc(F)c(Cl)c3)c2cc1OCCCN1CCOCC1", "remaining activity": "101%"}
{"Structure (SMILES)": "COc1cc2ncnc(Nc3ccc(Oc4ccccc4)cc3)c2cc1OC", "remaining activity": "87.8%"}
{"Structure (SMILES)": "O=C(CCCc1ccc(-c2ccccc2F)cc1)Nc1ccc(O)cc1", "remaining activity": "91.9%"}
{"Structure (SMILES)": "N#CC(C#N)=C(N)/C(C#N)=C/c1ccc(O)cc1", "remaining activity": "97%"}
{"Structure (SMILES)": "O=C1NC(=O)C(c2cn(CCCn3ccnc3)c3ccccc23)=C1Nc1ccccc1", "remaining activity": "81.8%"}
{"Structure (SMILES)": "C#Cc1cccc(Nc2ncnc3cc(OCCOC)c(OCCOC)cc23)c1", "remaining activity": "96.5%"}
{"Structure (SMILES)": "OCC(O)CCON=C1C(c2c(O)[nH]c3ccccc23)=Nc2ccccc21 (stereo not shown)", "remaining activity": "23.1%"}
{"Structure (SMILES)": "O=C(Nc1cccc(Nc2cc(Nc3cccc(C(F)(F)F)c3)ncn2)c1)C1CC1", "remaining activity": "96.7%"}
{"Structure (SMILES)": "Cc1cccc(-c2[nH]c(C(C)(C)C)nc2-c2ccc3c(c2)OCO3)n1", "remaining activity": "95.6%"}
{"Structure (SMILES)": "Cc1nc(-c2ccccc2)c(-c2ccncc2)o1", "remaining activity": "93.4%"}
{"Structure (SMILES)": "CNC(=O)c1cc(Oc2ccc(NC(=O)Nc3ccc(Cl)c(C(F)(F)F)c3)cc2)ccn1", "remaining activity": "98.2%"}
{"Structure (SMILES)": "CN(C)c1ccc(C=C2C(=O)Nc3ccccc32)cc1", "remaining activity": "97.1%"}
{"data": "Block 2", "Compound": "COc1ccc2c(c1)O[C@H](c1ccc(OC)c(OC)c1)C[C@@H]2NC(=O)C1(c2ccc3c(c2)OC(F)(F)O3)CC1", "read-out": "cell-free assay", "technique": "competition with immobilised ligand", "tested at": "1 µM"}
{"target": "ACVRL1 (Homo sapiens, UniProt P37023)", "remaining binding": "90%"}
{"target": "Ribosomal protein S6 kinase alpha-1, N-terminal kinase domain (RPS6KA1, Homo sapiens, UniProt Q15418)", "remaining binding": "100%"}
{"target": "FLT4 (Homo sapiens, UniProt P35916)", "remaining binding": "97%"}
{"target": "WEE1 (Homo sapiens, UniProt P30291)", "remaining binding": "100%"}
{"target": "ROS1 (Homo sapiens, UniProt P08922)", "remaining binding": "73%"}
{"data": "Block 3", "Compound": "COc1cc(C(=O)N2CCC(N3CCN(C)CC3)CC2)ccc1Nc1ncc2c(n1)N(C)c1ccccc1C(=O)N2C"}
{"target": "PIP4K2C mouse", "test": "KiNativ profiling", "system": "mouse brain lysate", "setting": "1 µM, ATP site, with: ADP acyl phosphate probe", "inhibition": "-1.5%"}
{"target": "PKCa (mouse)", "test": "probe labelling, KiNativ, measured: LYS1 site peptide", "system": "brain tissue lysate (mouse)", "setting": "1 µM, with: ATP acyl-phosphate probe", "inhibition": "4.8%"}
{"target": "MAP2K6 (human)", "test": "probe labelling, KiNativ ADP probe", "system": "human PBMC lysate", "setting": "concentration not given, LYS2 labelled site", "inhibition": "-14.5%"}
{"target": "MYLK", "test": "KiNativ ADP probe", "system": "mouse brain lysate", "setting": "0.1 µM, LYS1 site", "inhibition": "26.8%"}
{"target": "Receptor tyrosine-protein kinase erbB-4 (Erbb4, Mus musculus, UniProt Q61527)", "test": "probe labelling, KiNativ, measured: activation loop peptide", "system": "brain tissue lysate (mouse)", "setting": "0.1 µM, with: ATP acyl-phosphate probe", "inhibition": "-11.3%"}
{"target": "NDR1 (human)", "test": "probe labelling, KiNativ ADP probe", "system": "human PBMC lysate", "setting": "concentration not given, LYS1 labelled site", "inhibition": "-2.5%"}
{"target": "RSK2 domain 1 (mouse)", "test": "probe labelling, inhibitor, KiNativ ActivX ATP probe", "system": "mouse brain lysate", "setting": "1 µM, activation loop peptide", "inhibition": "-8.9%"}
{"data": "Other studies, line by line"}
{"Structure (SMILES)": "COc1ccc(-c2c(Nc3ccccn3)[nH]c3c(C4=CCCCC4)c(-c4ccccc4)nn3c2=O)cc1", "test": "immunohistochemistry", "system": "human, tumour biopsy", "setting": "100 mg per day, 2688 h", "scale": "reference: before treatment", "measurement": "SDMA staining reduction", "result": "81%"}
{"Structure (SMILES)": "N#Cc1ccc2[nH]cc(CCCCN3CCN(c4ccc5oc(C(N)=O)cc5c4)CC3)c2c1", "target or system": "SLC18A2 (Homo sapiens, UniProt Q05940)", "test": "amine uptake, inhibitor", "measurement": "IC50", "result": "69 nM"}
{"note": "Repeated from above (block 1):"}
{"Structure (SMILES)": "Cc1cccc(-c2[nH]c(C(C)(C)C)nc2-c2ccc3c(c2)OCO3)n1", "remaining activity": "95.6%"}
{"Structure (SMILES)": "COc1ccc(C(=O)Nc2sc3c(c2C(N)=O)CCCC3)cc1OC", "remaining activity": "94.6%"}
